# Experimental data of several laboratories.
# Lines come from different studies, so protocols differ. Numbers after ± are the reported error.
Structure (SMILES),target,test,system,conditions,IC50
NC[C@@H]1O[C@H](O[C@H]2[C@@H](O)[C@H](O[C@@H]3[C@@H](O)[C@H](N)C[C@H](N)[C@H]3O[C@H]3O[C@H](CO)[C@@H](CCO)[C@H](O)[C@H]3N)O[C@@H]2CO)[C@H](N)[C@@H](O)[C@@H]1O,"bacterial hybrid ribosome, human cytoplasmic A site","cell-free translation, inhibitor",,,51 µg/mL
CC(=O)N[C@H]1CNC(=O)[C@H](Cc2ccccc2)NC(=O)[C@H](Cc2ccccc2)NC(=O)CCCCCCCCNC1=O,AgrC (Staphylococcus aureus),"reporter gene, inhibitor","Staphylococcus aureus, AH1747 (MW2)",24 h,2610 nM
Cc1cc(O)cc(C)c1C[C@@H]1NC[C@H](CCCCN)NC(=O)[C@H](Cc2ccccc2)NC(=O)[C@@H](CCCNC(=N)N)NC1=O,"mu opioid receptor, guinea pig",electrically evoked contraction,guinea pig ileum,,2510 ± 360 nM
CC(=O)N[C@H]1CNC(=O)[C@H](Cc2ccccc2)NC(=O)[C@H](Cc2ccccc2)NC(=O)COCCOCCNC1=O,AgrC (Staphylococcus aureus),"reporter gene, inhibitor","Staphylococcus aureus, AH1747 (MW2)",24 h,> 10000 nM
CC[C@H](C)[C@H](NC(=O)[C@H](C)NC(=O)[C@@H](N)Cc1c[nH]cn1)C(=O)N[C@@H](Cc1ccc(O)cc1)C(=O)N1CCC[C@H]1C(=O)N[C@@H](CCCNC(=N)N)C(=O)N[C@@H](Cc1c[nH]cn1)C(=O)N[C@@H](CO)C(=O)N[C@@H](Cc1c[nH]c2ccccc12)C(=O)N[C@H](C(=O)N[C@@H](Cc1c[nH]c2ccccc12)C(=O)N[C@@H](CCC(=O)O)C(=O)N[C@@H](CCCCN)C(=O)N[C@@H](CCCCN)C(=O)N[C@@H](CC(C)C)C(=O)N[C@@H](CCC(=O)O)C(=O)N[C@H](C(=O)N[C@@H](C)C(=O)N[C@H](C(=O)N[C@@H](CC(N)=O)C(=O)N[C@@H](CC(C)C)C(=O)N[C@@H](C)C(=O)N[C@@H](Cc1c[nH]c2ccccc12)C(=O)N[C@H](C(=O)N[C@@H](C)C(=O)NCC(=O)N[C@@H](CC(N)=O)C(=O)N[C@@H](CO)C(=O)N[C@@H](CC(N)=O)C(=O)N[C@@H](CCCCN)C(=O)N[C@@H](Cc1c[nH]c2ccccc12)C(=O)N[C@H](C(=O)N[C@@H](Cc1c[nH]c2ccccc12)C(=O)N[C@@H](CCCCN)C(=O)O)[C@@H](C)O)[C@@H](C)O)C(C)C)[C@@H](C)O)[C@@H](C)O,cell death,PI staining flow cytometry,MEC1,90 min,3600 nM
CC(C)CS[C@H]1[C@H](O)[C@@H](N)[C@@H](O[C@H]2[C@H](O[C@@H]3O[C@H](CO)[C@@H](O[C@H]4O[C@@H](CN)[C@@H](O)[C@H](O)[C@H]4N)[C@H]3O)[C@@H](O)[C@H](N)C[C@@H]2N)O[C@@H]1CO,"bacterial hybrid ribosome, human mitochondrial A1555G A site","cell-free translation, inhibitor",,,150 µg/mL
COCOC[C@H]1O[C@H](O[C@H]2[C@H](O[C@@H]3O[C@H](CO)[C@@H](O[C@H]4O[C@@H](CN)[C@@H](O)[C@H](O)[C@H]4N)[C@H]3O)[C@@H](O)[C@H](N)C[C@@H]2N)[C@H](N)[C@@H](O)[C@@H]1OCOC,Mycobacterium smegmatis ribosome G1491A,"translation, cell-free luciferase synthesis",,,529 ± 76 µg/mL
NC[C@@H]1O[C@H](O[C@H]2[C@@H](O)[C@H](O[C@@H]3[C@@H](O)[C@H](N)C[C@H](N)[C@H]3O[C@H]3O[C@H](CO)[C@@H](SCCF)[C@H](O)[C@H]3N)O[C@@H]2CO)[C@H](N)[C@@H](O)[C@@H]1O,wild-type bacterial ribosome,"cell-free translation, inhibitor",,,0.06 µg/mL
CCCO[C@H]1[C@H](O)[C@@H](N)[C@@H](O[C@H]2[C@H](O[C@@H]3O[C@H](CO)[C@@H](O[C@H]4O[C@@H](CN)[C@@H](O)[C@H](O)[C@H]4N)[C@H]3O)[C@@H](O)[C@H](N)C[C@@H]2N)O[C@@H]1CO,Mycobacterium smegmatis ribosome G1491A,"translation, cell-free luciferase synthesis",,,45.5 ± 23.6 µg/mL
CCCCCCCCC(=O)NCc1ccc(O)c(OC)c1,mouse mAb 1-G12,"antibody binding, indirect competitive ELISA",,together with: coating antigen 1-OVA,0.383 µg/mL
CCCCO[C@H]1[C@H](O)[C@@H](N)[C@@H](O[C@H]2[C@H](O[C@@H]3O[C@H](CO)[C@@H](O[C@H]4O[C@@H](CN)[C@@H](O)[C@H](O)[C@H]4N)[C@H]3O)[C@@H](O)[C@H](N)C[C@@H]2N)O[C@@H]1CO,Mycobacterium smegmatis ribosome G1491C,"translation, cell-free luciferase synthesis",,,348 ± 23.7 µg/mL
C=C[C@H]1CN2CCc3c([nH]c4cccc(OC)c34)[C@@H]2C[C@@H]1/C(=C\OC)C(=O)OC,rabbit anti-mitragynine polyclonal antibody,"antigen binding, competitor, competitive indirect ELISA",,0.001 to 50.0 µg/mL,1.33 µg/mL
NC[C@@H]1O[C@H](O[C@H]2[C@@H](O)[C@H](O[C@@H]3[C@@H](O)[C@H](N)C[C@H](N)[C@H]3O[C@H]3O[C@H](CO)[C@@H](OCCCO)[C@H](O)[C@H]3N)O[C@@H]2CO)[C@H](N)[C@@H](O)[C@@H]1O,Mycobacterium smegmatis ribosome G1491A,"translation, cell-free luciferase synthesis",,,144 ± 15.9 µg/mL
CC(=O)N[C@H]1CSC(=O)[C@H](Cc2ccccc2)NC(=O)[C@H](Cc2ccccc2)NC(=O)CCCCCCCNC1=O,AgrC (Staphylococcus aureus),"reporter gene, inhibitor","Staphylococcus aureus, AH1677 (USA300 LAC)",24 h,340 nM
NC[C@@H]1O[C@H](O[C@H]2[C@@H](O)[C@H](O[C@@H]3[C@@H](O)[C@H](N)C[C@H](N)[C@H]3O[C@H]3O[C@H](CO)[C@@H](OCC(O)CO)[C@H](O)[C@H]3N)O[C@@H]2CO)[C@H](N)[C@@H](O)[C@@H]1O (some centres unmarked),Mycobacterium smegmatis ribosome G1491C,"translation, cell-free luciferase synthesis",,,67.3 ± 21.2 µg/mL
CC(C)S[C@H]1[C@H](O)[C@@H](N)[C@@H](O[C@H]2[C@H](O[C@@H]3O[C@H](CO)[C@@H](O[C@H]4O[C@@H](CN)[C@@H](O)[C@H](O)[C@H]4N)[C@H]3O)[C@@H](O)[C@H](N)C[C@@H]2N)O[C@@H]1CO,"bacterial hybrid ribosome, human cytoplasmic A site","cell-free translation, inhibitor",,,111 µg/mL
C=CCO[C@H]1[C@H](O)[C@@H](N)[C@@H](O[C@H]2[C@H](O[C@@H]3O[C@H](CO)[C@@H](O[C@H]4O[C@@H](CN)[C@@H](O)[C@H](O)[C@H]4N)[C@H]3O)[C@@H](O)[C@H](N)C[C@@H]2N)O[C@@H]1CO,Mycobacterium smegmatis ribosome G1491A,"translation, cell-free luciferase synthesis",,,44.7 ± 3.15 µg/mL
Cc1cc(Nc2cc(CN(C)C)cc(NC(=O)c3cccc(Nc4ccnc5ccccc45)c3)c2)nc(N)n1,human DNA polymerase theta,inhibitor,,,68000 nM
CC(=O)N[C@H]1CSC(=O)[C@H](Cc2ccccc2)NC(=O)[C@H](Cc2ccccc2)NC(=O)COCCOCCNC1=O,AgrC (Staphylococcus aureus),"reporter gene, inhibitor","Staphylococcus aureus, AH1677 (USA300 LAC)",24 h,181 nM
CC[C@H](C)[C@H](NC(=O)[C@H](CCCCN)NC(=O)[C@@H](NC(=O)[C@H](CCC(N)=O)NC(=O)[C@H](CCCNC(=N)N)NC(=O)[C@H](CC(C)C)NC(=O)CNC(=O)[C@H](Cc1ccccc1)NC(=O)CNC(=O)[C@H](Cc1ccc(O)cc1)NC(=O)CNC(=O)[C@H](CCCCN)NC(=O)[C@@H](NC(=O)[C@H](Cc1ccccc1)NC(=O)[C@@H](NC(=O)[C@H](CC(=O)O)NC(=O)[C@@H](N)CCCNC(=N)N)C(C)C)[C@@H](C)O)[C@@H](C)CC)C(=O)N[C@@H](Cc1c[nH]c2ccccc12)C(=O)N[C@@H](Cc1ccccc1)C(=O)N[C@@H](CCC(N)=O)C(=O)N[C@@H](CC(N)=O)C(=O)N[C@@H](CCCNC(=N)N)C(=O)N[C@@H](CCCNC(=N)N)C(=O)N[C@@H](CCSC)C(=O)N[C@@H](CCCCN)C(=O)N[C@@H](Cc1c[nH]c2ccccc12)C(=O)N[C@@H](CCCCN)C(=O)N[C@@H](CCCCN)C(=O)O,cell death,PI staining flow cytometry,MEC1,90 min,3300 nM
CCCS[C@H]1[C@H](O)[C@@H](N)[C@@H](O[C@H]2[C@H](O[C@@H]3O[C@H](CO)[C@@H](O[C@H]4O[C@@H](CN)[C@@H](O)[C@H](O)[C@H]4N)[C@H]3O)[C@@H](O)[C@H](N)C[C@@H]2N)O[C@@H]1CO,"bacterial hybrid ribosome, human cytoplasmic A site","cell-free translation, inhibitor",,,130 µg/mL
CC[C@@H]1CN2CCc3c([nH]c4cccc(OC)c34)[C@H]2C[C@@H]1/C(=C\OC)C(=O)OC,rabbit anti-mitragynine polyclonal antibody,"antigen binding, competitor, competitive indirect ELISA",,0.001 to 50.0 µg/mL,2.29 µg/mL
CCS(=O)(=O)[C@H]1[C@H](O)[C@@H](N)[C@@H](O[C@H]2[C@H](O[C@@H]3O[C@H](CO)[C@@H](O[C@H]4O[C@@H](CN)[C@@H](O)[C@H](O)[C@H]4N)[C@H]3O)[C@@H](O)[C@H](N)C[C@@H]2N)O[C@@H]1CO,"bacterial hybrid ribosome, human mitochondrial A1555G A site","cell-free translation, inhibitor",,,175 µg/mL
NC[C@@H]1O[C@H](O[C@H]2[C@@H](O)[C@H](O[C@@H]3[C@@H](O)[C@H](N)C[C@H](N)[C@H]3O[C@H]3O[C@H](CO)[C@@H](OCCO)[C@H](O)[C@H]3N)O[C@@H]2CO)[C@H](N)[C@@H](O)[C@@H]1O,Mycobacterium smegmatis ribosome G1491A,"translation, cell-free luciferase synthesis",,,5.99 ± 1.19 µg/mL
CC[S+]([O-])C1C(CO)OC(OC2C(N)CC(N)C(O)C2OC2OC(CO)C(OC3OC(CN)C(O)C(O)C3N)C2O)C(N)C1O (mixture of isomers),wild-type bacterial ribosome,"cell-free translation, inhibitor",,,0.5 µg/mL
CC(=O)NC1C(OC2OC(CC(O)C3OC(n4ccc(=O)[nH]c4=O)C(O)C3O)C(O)C(O)C2NC(=O)C=CCCCCCCCCCC(C)C)OC(CO)C(O)C1O (centres unmarked),MraY,"enzyme activity, inhibitor",,,> 50000 nM

# Excerpt of the above:
Structure (SMILES),target,test,system,conditions,IC50
CC(=O)N[C@H]1CSC(=O)[C@H](Cc2ccccc2)NC(=O)[C@H](Cc2ccccc2)NC(=O)COCCOCCNC1=O,AgrC (Staphylococcus aureus),"reporter gene, inhibitor","Staphylococcus aureus, AH1677 (USA300 LAC)",24 h,181 nM
CC[C@H](C)[C@H](NC(=O)[C@H](CCCCN)NC(=O)[C@@H](NC(=O)[C@H](CCC(N)=O)NC(=O)[C@H](CCCNC(=N)N)NC(=O)[C@H](CC(C)C)NC(=O)CNC(=O)[C@H](Cc1ccccc1)NC(=O)CNC(=O)[C@H](Cc1ccc(O)cc1)NC(=O)CNC(=O)[C@H](CCCCN)NC(=O)[C@@H](NC(=O)[C@H](Cc1ccccc1)NC(=O)[C@@H](NC(=O)[C@H](CC(=O)O)NC(=O)[C@@H](N)CCCNC(=N)N)C(C)C)[C@@H](C)O)[C@@H](C)CC)C(=O)N[C@@H](Cc1c[nH]c2ccccc12)C(=O)N[C@@H](Cc1ccccc1)C(=O)N[C@@H](CCC(N)=O)C(=O)N[C@@H](CC(N)=O)C(=O)N[C@@H](CCCNC(=N)N)C(=O)N[C@@H](CCCNC(=N)N)C(=O)N[C@@H](CCSC)C(=O)N[C@@H](CCCCN)C(=O)N[C@@H](Cc1c[nH]c2ccccc12)C(=O)N[C@@H](CCCCN)C(=O)N[C@@H](CCCCN)C(=O)O,cell death,PI staining flow cytometry,MEC1,90 min,3300 nM
